Results pooled from the literature.
Compare with care: the assays were run in different laboratories. Numbers after ± are the reported error.
rep main protease: Replicase polyprotein 1ab, main protease (rep, Severe acute respiratory syndrome coronavirus 2, UniProt P0DTD1)
Epithelial sodium channel subunit beta: Epithelial sodium channel subunit beta (Homo sapiens, UniProt P51168)
UniProt P51168, sequence (whole entry, looked up): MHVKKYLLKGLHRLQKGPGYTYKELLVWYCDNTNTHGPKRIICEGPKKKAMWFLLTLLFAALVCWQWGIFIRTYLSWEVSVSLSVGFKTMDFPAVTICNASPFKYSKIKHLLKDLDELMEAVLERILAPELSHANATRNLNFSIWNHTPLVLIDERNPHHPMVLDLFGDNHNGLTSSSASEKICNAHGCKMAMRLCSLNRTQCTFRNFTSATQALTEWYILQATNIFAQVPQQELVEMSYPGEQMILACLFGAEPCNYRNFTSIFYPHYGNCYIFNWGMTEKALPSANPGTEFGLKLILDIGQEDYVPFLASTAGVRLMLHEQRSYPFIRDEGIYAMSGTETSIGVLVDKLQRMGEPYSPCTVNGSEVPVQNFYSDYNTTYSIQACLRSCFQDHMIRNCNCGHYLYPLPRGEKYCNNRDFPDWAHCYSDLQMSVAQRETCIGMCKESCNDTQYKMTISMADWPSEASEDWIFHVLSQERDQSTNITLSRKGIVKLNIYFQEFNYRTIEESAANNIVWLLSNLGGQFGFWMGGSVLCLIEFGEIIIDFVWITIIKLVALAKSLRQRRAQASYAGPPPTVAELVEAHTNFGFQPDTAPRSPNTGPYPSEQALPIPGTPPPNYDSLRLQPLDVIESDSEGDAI
HLA class I histocompatibility antigen, A alpha chain: HLA class I histocompatibility antigen, A alpha chain (Homo sapiens, UniProt P04439)
gag-pol K653N reverse transcriptase: Gag-Pol polyprotein, reverse transcriptase (gag-pol, Human immunodeficiency virus type 1 group M subtype B, UniProt P04585, K653N)
UniProt Q9HT15, sequence (whole entry, looked up): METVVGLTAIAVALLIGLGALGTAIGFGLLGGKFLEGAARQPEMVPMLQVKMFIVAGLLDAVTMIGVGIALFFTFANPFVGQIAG
UniProt O35659, sequence (whole entry, looked up): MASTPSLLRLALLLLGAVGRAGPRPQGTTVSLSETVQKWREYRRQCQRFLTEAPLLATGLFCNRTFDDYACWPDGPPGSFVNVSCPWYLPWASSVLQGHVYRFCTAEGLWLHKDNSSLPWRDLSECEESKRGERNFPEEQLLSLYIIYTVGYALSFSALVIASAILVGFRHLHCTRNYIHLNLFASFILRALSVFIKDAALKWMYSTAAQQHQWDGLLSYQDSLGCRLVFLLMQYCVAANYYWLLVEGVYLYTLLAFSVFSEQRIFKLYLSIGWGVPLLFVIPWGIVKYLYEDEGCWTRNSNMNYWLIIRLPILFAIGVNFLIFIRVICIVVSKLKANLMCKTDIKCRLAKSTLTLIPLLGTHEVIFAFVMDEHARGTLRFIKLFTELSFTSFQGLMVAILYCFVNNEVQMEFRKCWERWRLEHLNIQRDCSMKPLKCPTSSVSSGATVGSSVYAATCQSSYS
UniProt O15393, sequence (whole entry, looked up): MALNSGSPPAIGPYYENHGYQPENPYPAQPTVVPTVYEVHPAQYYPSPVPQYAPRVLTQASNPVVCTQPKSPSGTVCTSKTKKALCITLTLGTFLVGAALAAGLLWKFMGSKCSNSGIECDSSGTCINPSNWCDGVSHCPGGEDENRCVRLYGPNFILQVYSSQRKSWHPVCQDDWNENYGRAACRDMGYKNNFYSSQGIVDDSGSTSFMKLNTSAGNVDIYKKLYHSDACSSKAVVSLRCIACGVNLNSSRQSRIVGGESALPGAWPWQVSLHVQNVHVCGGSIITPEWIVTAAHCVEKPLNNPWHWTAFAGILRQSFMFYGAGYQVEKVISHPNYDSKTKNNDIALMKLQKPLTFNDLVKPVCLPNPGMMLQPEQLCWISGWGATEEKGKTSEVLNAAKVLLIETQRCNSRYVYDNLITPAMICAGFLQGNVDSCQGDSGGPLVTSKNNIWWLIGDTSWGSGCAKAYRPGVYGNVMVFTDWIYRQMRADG
UniProt P04756, sequence (whole entry, looked up): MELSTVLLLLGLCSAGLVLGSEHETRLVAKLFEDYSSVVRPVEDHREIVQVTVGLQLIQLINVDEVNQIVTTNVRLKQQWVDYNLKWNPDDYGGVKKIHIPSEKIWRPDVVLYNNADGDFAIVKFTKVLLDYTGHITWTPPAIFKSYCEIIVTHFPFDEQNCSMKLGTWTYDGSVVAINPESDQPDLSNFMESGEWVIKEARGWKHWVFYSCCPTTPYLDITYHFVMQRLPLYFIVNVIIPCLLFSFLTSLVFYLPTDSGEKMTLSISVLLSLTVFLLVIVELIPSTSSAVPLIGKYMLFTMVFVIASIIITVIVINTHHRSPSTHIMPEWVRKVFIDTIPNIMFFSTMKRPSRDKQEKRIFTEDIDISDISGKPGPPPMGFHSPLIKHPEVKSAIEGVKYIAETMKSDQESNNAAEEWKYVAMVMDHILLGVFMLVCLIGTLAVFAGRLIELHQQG
UniProt P02716, sequence (whole entry, looked up): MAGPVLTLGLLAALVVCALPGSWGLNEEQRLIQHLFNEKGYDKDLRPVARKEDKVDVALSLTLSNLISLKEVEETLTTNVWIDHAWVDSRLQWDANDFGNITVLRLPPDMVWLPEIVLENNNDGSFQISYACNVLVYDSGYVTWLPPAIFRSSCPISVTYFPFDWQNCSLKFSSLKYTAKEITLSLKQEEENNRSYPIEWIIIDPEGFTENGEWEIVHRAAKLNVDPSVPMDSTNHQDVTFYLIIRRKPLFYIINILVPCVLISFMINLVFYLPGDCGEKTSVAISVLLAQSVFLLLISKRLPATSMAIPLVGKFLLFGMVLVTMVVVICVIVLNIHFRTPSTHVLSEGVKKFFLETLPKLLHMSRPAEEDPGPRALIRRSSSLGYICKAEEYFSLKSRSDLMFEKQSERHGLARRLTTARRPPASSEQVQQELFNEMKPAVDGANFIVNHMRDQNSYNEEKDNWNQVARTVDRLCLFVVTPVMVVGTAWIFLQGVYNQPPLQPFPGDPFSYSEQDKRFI
UniProt Q9NSA0, sequence (whole entry, looked up): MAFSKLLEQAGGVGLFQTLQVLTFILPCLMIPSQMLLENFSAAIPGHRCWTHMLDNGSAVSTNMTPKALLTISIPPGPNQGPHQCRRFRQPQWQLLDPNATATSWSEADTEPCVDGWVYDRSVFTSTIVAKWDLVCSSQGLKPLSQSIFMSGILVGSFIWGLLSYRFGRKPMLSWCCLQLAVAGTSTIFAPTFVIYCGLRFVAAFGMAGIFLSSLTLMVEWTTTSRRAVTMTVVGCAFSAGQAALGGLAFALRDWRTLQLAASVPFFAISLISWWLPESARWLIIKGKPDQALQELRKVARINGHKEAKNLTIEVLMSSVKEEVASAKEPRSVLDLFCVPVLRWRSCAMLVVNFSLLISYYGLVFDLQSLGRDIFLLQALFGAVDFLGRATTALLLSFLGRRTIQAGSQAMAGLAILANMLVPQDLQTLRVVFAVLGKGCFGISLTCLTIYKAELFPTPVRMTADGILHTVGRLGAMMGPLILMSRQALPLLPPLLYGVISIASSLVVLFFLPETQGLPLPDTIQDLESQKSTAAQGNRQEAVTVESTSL
UniProt P20782, sequence (whole entry, looked up): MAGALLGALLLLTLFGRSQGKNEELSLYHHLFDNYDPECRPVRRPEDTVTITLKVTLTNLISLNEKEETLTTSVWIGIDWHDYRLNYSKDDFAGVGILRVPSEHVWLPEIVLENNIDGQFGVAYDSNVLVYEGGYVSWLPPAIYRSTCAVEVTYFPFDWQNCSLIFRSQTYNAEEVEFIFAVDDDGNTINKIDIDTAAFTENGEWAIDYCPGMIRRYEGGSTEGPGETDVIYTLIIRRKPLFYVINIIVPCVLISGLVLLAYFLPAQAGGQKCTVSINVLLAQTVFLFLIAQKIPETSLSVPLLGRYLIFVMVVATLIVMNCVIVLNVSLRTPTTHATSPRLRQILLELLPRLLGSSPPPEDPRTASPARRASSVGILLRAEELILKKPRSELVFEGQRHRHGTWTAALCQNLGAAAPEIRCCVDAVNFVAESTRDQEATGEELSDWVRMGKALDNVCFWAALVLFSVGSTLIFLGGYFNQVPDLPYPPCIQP
UniProt P42264, sequence (whole entry, unmodified, looked up): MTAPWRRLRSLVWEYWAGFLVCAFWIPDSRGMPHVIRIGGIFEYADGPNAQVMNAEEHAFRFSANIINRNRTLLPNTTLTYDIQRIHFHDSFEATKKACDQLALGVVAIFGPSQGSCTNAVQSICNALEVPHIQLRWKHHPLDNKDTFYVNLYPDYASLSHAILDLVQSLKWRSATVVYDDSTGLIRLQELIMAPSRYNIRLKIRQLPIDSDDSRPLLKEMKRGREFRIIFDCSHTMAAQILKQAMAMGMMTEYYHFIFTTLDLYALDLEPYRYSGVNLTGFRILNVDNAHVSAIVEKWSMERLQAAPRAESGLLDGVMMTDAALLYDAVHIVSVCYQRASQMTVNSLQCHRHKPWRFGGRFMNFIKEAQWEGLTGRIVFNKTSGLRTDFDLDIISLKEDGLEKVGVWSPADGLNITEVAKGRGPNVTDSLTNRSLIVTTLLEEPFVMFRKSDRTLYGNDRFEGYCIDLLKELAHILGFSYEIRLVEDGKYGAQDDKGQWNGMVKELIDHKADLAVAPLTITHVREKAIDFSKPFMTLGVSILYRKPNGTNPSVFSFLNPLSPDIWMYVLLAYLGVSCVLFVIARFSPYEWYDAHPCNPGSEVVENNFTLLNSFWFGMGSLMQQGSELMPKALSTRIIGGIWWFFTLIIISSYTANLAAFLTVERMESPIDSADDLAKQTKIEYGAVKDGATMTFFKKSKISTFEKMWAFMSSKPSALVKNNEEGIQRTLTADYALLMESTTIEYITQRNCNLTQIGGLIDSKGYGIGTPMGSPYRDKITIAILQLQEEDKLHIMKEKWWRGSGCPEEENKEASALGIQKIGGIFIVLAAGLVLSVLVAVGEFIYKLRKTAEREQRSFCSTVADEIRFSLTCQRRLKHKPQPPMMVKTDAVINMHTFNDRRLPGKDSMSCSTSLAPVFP

CC[C@H](C)[C@H](NC(=O)[C@H](CO)NC(=O)[C@H](Cc1ccc(O)cc1)NC(=O)[C@H](CC(=O)O)NC(=O)[C@H](CO)NC(=O)[C@@H](NC(=O)[C@H](Cc1ccccc1)NC(=O)[C@@H](NC(=O)CNC(=O)[C@H](CCC(=O)O)NC(=O)CCNC(=O)C1(c2ccc(Cl)cc2)CCOCC1)[C@@H](C)O)[C@@H](C)CC)C(=O)N[C@@H](C)C(=O)N[C@@H](CCSC)C(=O)N[C@@H](CC(=O)O)C(=O)N[C@@H](CCCCN)C(=O)N[C@H](C(=O)N[C@@H](Cc1c[nH]cn1)C(=O)N[C@@H](CCC(N)=O)C(=O)N[C@@H](CCC(N)=O)C(=O)N[C@@H](CC(=O)O)C(=O)N[C@@H](Cc1ccccc1)C(=O)N[C@H](C(=O)N[C@@H](CC(N)=O)C(=O)N[C@@H](Cc1c[nH]c2ccccc12)C(=O)N[C@@H](CC(C)C)C(=O)N[C@@H](CC(C)C)C(=O)N[C@@H](C)C(=O)N[C@@H](CCC(N)=O)C(=O)NCC(=O)N1CCC[C@H]1C(=O)N[C@@H](CO)C(=O)N[C@@H](CO)C(=O)NCC(=O)N[C@@H](C)C(=O)N1CCC[C@H]1C(=O)N1CCC[C@H]1C(=O)N1CCC[C@H]1C(=O)N[C@@H](CO)C(=O)N[C@@H](CCCCN)C(N)=O)C(C)C)[C@@H](C)CC — Emax (Glucagon-like peptide 1 receptor (Mus musculus, UniProt O35659); cAMP, agonist): 51%
Cl.O=C(O)/C=C/c1ccc(Cn2ccnc2)cc1 — inhibition (rep main protease; reporter gene (Gaussia luciferase), inhibitor; 20 µM): 1.47%
CC[C@H](C)[C@H](NC(=O)[C@@H](NC(=O)[C@H](CC(C)C)NC(=O)[C@H](CC(N)=O)NC(=O)[C@H](CC(=O)O)NC(=O)[C@H](CCC(=O)O)NC(=O)[C@@H](NC(=O)[C@@H](N)CCCNC(=N)N)[C@@H](C)CC)C(C)C)C(=O)N[C@H](C(=O)N[C@@H](CCCNC(=N)N)C(=O)O)[C@@H](C)CC — kon (Epithelial sodium channel subunit beta; binding, bio-layer interferometry): 107 M⁻¹ s⁻¹
CCOC(=O)CC(SP(=S)(OC)OC)C(=O)OCC (centres unmarked) — remaining activity (uncharacterized protein (Anopheles coluzzii, UniProt A0A6E8VQK1); enzyme activity, inhibitor; Sf9 cell homogenate; 45.45 µM, 0.1667 h, added: α-naphthyl acetate substrate; relative to: no inhibitor): 106%
ARNCRAPRK — peptide binding (HLA class I histocompatibility antigen, A alpha chain; iTopia binding; peptide; 11 µM, 18 h, 21 °C; relative to: positive control): 73.5%
Nc1ccn([C@H]2C[C@H](O)[C@@H](COP(=O)(O)OP(=O)(O)OP(=O)(O)O)O2)c(=O)n1 — Km (gag-pol K653N reverse transcriptase; nucleotide misinsertion, steady-state kinetics; K66N mutant RT, added: opposite template T): 1530 ± 1090 µM
COc1cc2c3cc1Oc1cc(ccc1O)C[C@@H]1c4c(cc(OC)c(O)c4Oc4ccc(cc4)C[C@@H]3N(C)CC2)CC[N+]1(C)C — response amplitude (Chrnd/Chrna1/Chrne (Mus musculus, UniProt P02716+P04756+P20782); mouse diaphragm; 0.1 µM, AChE inhibited; relative to: control): 72%
KNCRAPRKK — dissociation half-life (HLA class I histocompatibility antigen, A alpha chain; peptide-MHC complex stability, iTopia off-rate; peptide): 17.4 min
CC(C)[C@H](NC(=O)[C@H](Cc1ccccc1)NC(=O)[C@@H](N)Cc1ccc(O)cc1)C(=O)N[C@H](CCCNC(=N)N)C(=O)c1nc2ccccc2s1 — activity vs control (TMPRSS2 (Homo sapiens, UniProt O15393); enzyme activity, inhibitor; 1 nM): 91%
Nc1ncnc2c1ncn2[C@H]1C[C@H](O)[C@@H](COP(=O)(O)OP(=O)(O)OP(=O)(O)O)O1 — kcat (gag-pol K653N reverse transcriptase; substrate; K66N mutant, added: matched T:A primer template): 0.105 ± 0.014 s⁻¹
Nc1ncnc2c([C@@H]3N[C@H](CO)[C@@H](O)[C@H]3O)c[nH]c12 — inhibition (Yellow fever virus; viral replication; Vero 76, 17D; 9.5 µM): 50%
CNC(=O)[C@@H](NC(=O)[C@H](CC(C)C)[C@H](O)C(=O)NO)C(C)(C)C — remaining fibrinogen Bβ chain (human fibrinogen; SDS-PAGE; Daboia russelii; concentration not given, unit not given, added: GA venom; relative to: untreated fibrinogen): 0.805
NC(=O)c1c(N)sc2c1CCCCC2 — RNA/DNA substrate affinity (Gag-Pol polyprotein, RT with RNA/DNA hybrid (gag-pol, Human immunodeficiency virus 1, UniProt P03366, E1077Q); substrate binding, electrophoretic mobility shift; 50 µM): no effect
Cn1cnc(Cn2c(=O)[nH]/c(=N\c3cc4cn(C)nc4cc3Cl)n(Cc3cc(F)c(F)cc3F)c2=O)n1 — renal clearance (human, severe renal impairment, plasma; oral, 375 mg single dose): 0.542 mL/min
Cc1cn([C@H]2C[C@H](O)[C@@H](COP(=O)(O)OP(=O)(O)OP(=O)(O)O)O2)c(=O)[nH]c1=O — Km (Gag-Pol polyprotein, reverse transcriptase p66 homodimer (gag-pol, Human immunodeficiency virus type 1 group M subtype B, UniProt P04585); substrate): 0.29 ± 0.07 µM
Cc1cn([C@H]2C[C@H](O)[C@@H](COP(=O)(O)OP(=O)(O)OP(=O)(O)O)O2)c(=O)[nH]c1=O — Km (gag-pol K653N reverse transcriptase; nucleotide misinsertion, steady-state kinetics; K66N mutant RT, added: opposite template T): 1620 ± 660 µM
LARNCRAPR — dissociation half-life (HLA class I histocompatibility antigen, A alpha chain; peptide-MHC complex stability, iTopia off-rate; peptide): 18.6 min
[Ni+2] — relative specific activity (uncharacterized protein (Bacteroides thetaiotaomicron, UniProt Q8A4G9); phosphatase activity, activator, phosphate release; 5 mM, EDTA-treated enzyme, added: substrate 25 mM; relative to: activity with Mg2+): 0.0042
N[C@@H](C[C@]1(C(=O)O)C[C@H]2OC[C@@H](O)[C@@H](O)[C@H]2O1)C(=O)O — affinity increase (Glutamate receptor ionotropic, kainate 3 (Rattus norvegicus, UniProt P42264, F446Y/T520A); [3H]kainate displacement; relative to: wild-type GluK3): 10 fold
COC(=O)C[C@H](NC(=O)[C@H](C)NC(=O)[C@@H](NC(=O)OCc1ccccc1)C(C)C)C(=O)CF — inhibition (rep main protease; reporter gene (mKate2), inhibitor; 20 µM): -0.475%
RASVLSGGK — ED50 (HLA class I histocompatibility antigen, A alpha chain; peptide binding, iTopia affinity; peptide): 17.4 µM
Cc1cn([C@H]2C=C[C@@H](COP(=O)(O)OP(=O)(O)OP(=O)(O)O)O2)c(=O)[nH]c1=O — fold resistance (Gag-Pol polyprotein, reverse transcriptase (gag-pol, Human immunodeficiency virus type 1 group M subtype B, UniProt P04585, K653T); reverse transcriptase activity, inhibitor; HIV-1; relative to: K66T mutant over wild type): ~2 fold
CC(C)C[C@H](NC(=O)[C@H](Cc1ccccc1)NC(=O)[C@@H]1CCCN1C(=O)[C@H](CCCNC(=N)N)NC(=O)[C@H](CCC(=O)O)NC(=O)[C@@H]1CCCN1C(=O)[C@H](CO)NC(=O)[C@@H](N)CCC(=O)O)C(=O)O — koff (Epithelial sodium channel subunit beta; binding, bio-layer interferometry): 0.0165 s⁻¹
AKNCRAPRK — peptide binding (HLA class I histocompatibility antigen, A alpha chain; iTopia binding; peptide; 11 µM, 18 h, 21 °C; relative to: positive control): 80.2%
CC[C@H](C)[C@H](NC(=O)[C@H](CC(C)C)NC(=O)[C@H](Cc1c[nH]c2ccccc12)NC(=O)[C@H](CCC(N)=O)NC(=O)[C@@H](NC(=O)[C@H](Cc1ccccc1)NC(=O)[C@H](C)NC(=O)[C@H](CCCCNC(=O)COCCOCCNC(=O)COCCOCCNC(=O)CC[C@H](NC(=O)CCCCCCCCCCCCCCCCCCC(=O)O)C(=O)O)NC(=O)[C@H](CCC(N)=O)NC(=O)[C@H](C)NC(=O)[C@@H](NC(=O)[C@H](CCCCN)NC(=O)[C@H](CC(=O)O)NC(=O)[C@H](CC(C)C)NC(=O)C(C)(C)NC(=O)[C@@H](NC(=O)[C@H](CO)NC(=O)[C@H](Cc1ccc(O)cc1)NC(=O)[C@H](CC(=O)O)NC(=O)[C@H](CO)NC(=O)[C@@H](NC(=O)[C@H](Cc1ccccc1)NC(=O)[C@@H](NC(=O)CNC(=O)[C@H](CCC(=O)O)NC(=O)C(C)(C)NC(=O)[C@@H](N)Cc1ccc(O)cc1)[C@@H](C)O)[C@@H](C)O)[C@@H](C)CC)[C@@H](C)CC)C(C)C)C(=O)N[C@@H](C)C(=O)NCC(=O)NCC(=O)N1CCC[C@H]1C(=O)N[C@@H](CO)C(=O)N[C@@H](CO)C(=O)NCC(=O)N[C@@H](C)C(=O)N1CCC[C@H]1C(=O)N1CCC[C@H]1C(=O)N1CCC[C@H]1C(=O)N[C@@H](CO)C(N)=O — systolic blood pressure change (healthy subjects, single ascending dose; 5.0 mg, day 29; relative to: baseline): -0.83 mmHg
CCN(CC)c1nc(C)cc(OP(=S)(OC)OC)n1 — remaining activity (uncharacterized protein (Anopheles coluzzii, UniProt A0A6E8VQK1); enzyme activity, inhibitor; Sf9 cell homogenate; 22.94 µM, 0.1667 h, added: α-naphthyl acetate substrate; relative to: no inhibitor): 94.9%
C[C@@H]1Cc2c(Cl)cc(C(=O)N[C@@H](Cc3ccccc3)C(=O)O)c(O)c2C(=O)O1 — Km (SLC22A11 (Homo sapiens, UniProt Q9NSA0); substrate; CHO cells expressing human OAT4; 5 min, pH 7.4): 10.6 ± 7.6 µM
Nc1nc2c(ncn2[C@H]2C[C@H](O)[C@@H](COP(=O)(O)OP(=O)(O)OP(=O)(O)O)O2)c(=O)[nH]1 — Km (gag-pol K653N reverse transcriptase; nucleotide misinsertion, steady-state kinetics; K66N mutant RT, added: opposite template T): 4.31 ± 1.95 µM
N#CC(C#N)=NNc1cccc(Cl)c1 — luminescence from non-ATP synthase sources (ATP synthase subunit c, whole ATP synthase complex (atpE, Pseudomonas aeruginosa, UniProt Q9HT15); ATP synthesis, luciferin-luciferase; Pseudomonas aeruginosa, inverted membrane vesicles; 200 µM; relative to: no inhibitor): 29 ± 5%

Some of these lines once more:
RASVLSGGK — ED50 (HLA class I histocompatibility antigen, A alpha chain; peptide binding, iTopia affinity; peptide): 17.4 µM
Cc1cn([C@H]2C=C[C@@H](COP(=O)(O)OP(=O)(O)OP(=O)(O)O)O2)c(=O)[nH]c1=O — fold resistance (Gag-Pol polyprotein, reverse transcriptase (gag-pol, Human immunodeficiency virus type 1 group M subtype B, UniProt P04585, K653T); reverse transcriptase activity, inhibitor; HIV-1; relative to: K66T mutant over wild type): ~2 fold
CC(C)C[C@H](NC(=O)[C@H](Cc1ccccc1)NC(=O)[C@@H]1CCCN1C(=O)[C@H](CCCNC(=N)N)NC(=O)[C@H](CCC(=O)O)NC(=O)[C@@H]1CCCN1C(=O)[C@H](CO)NC(=O)[C@@H](N)CCC(=O)O)C(=O)O — koff (Epithelial sodium channel subunit beta; binding, bio-layer interferometry): 0.0165 s⁻¹
AKNCRAPRK — peptide binding (HLA class I histocompatibility antigen, A alpha chain; iTopia binding; peptide; 11 µM, 18 h, 21 °C; relative to: positive control): 80.2%
CC[C@H](C)[C@H](NC(=O)[C@H](CC(C)C)NC(=O)[C@H](Cc1c[nH]c2ccccc12)NC(=O)[C@H](CCC(N)=O)NC(=O)[C@@H](NC(=O)[C@H](Cc1ccccc1)NC(=O)[C@H](C)NC(=O)[C@H](CCCCNC(=O)COCCOCCNC(=O)COCCOCCNC(=O)CC[C@H](NC(=O)CCCCCCCCCCCCCCCCCCC(=O)O)C(=O)O)NC(=O)[C@H](CCC(N)=O)NC(=O)[C@H](C)NC(=O)[C@@H](NC(=O)[C@H](CCCCN)NC(=O)[C@H](CC(=O)O)NC(=O)[C@H](CC(C)C)NC(=O)C(C)(C)NC(=O)[C@@H](NC(=O)[C@H](CO)NC(=O)[C@H](Cc1ccc(O)cc1)NC(=O)[C@H](CC(=O)O)NC(=O)[C@H](CO)NC(=O)[C@@H](NC(=O)[C@H](Cc1ccccc1)NC(=O)[C@@H](NC(=O)CNC(=O)[C@H](CCC(=O)O)NC(=O)C(C)(C)NC(=O)[C@@H](N)Cc1ccc(O)cc1)[C@@H](C)O)[C@@H](C)O)[C@@H](C)CC)[C@@H](C)CC)C(C)C)C(=O)N[C@@H](C)C(=O)NCC(=O)NCC(=O)N1CCC[C@H]1C(=O)N[C@@H](CO)C(=O)N[C@@H](CO)C(=O)NCC(=O)N[C@@H](C)C(=O)N1CCC[C@H]1C(=O)N1CCC[C@H]1C(=O)N1CCC[C@H]1C(=O)N[C@@H](CO)C(N)=O — systolic blood pressure change (healthy subjects, single ascending dose; 5.0 mg, day 29; relative to: baseline): -0.83 mmHg
